Results pooled from the literature.
Compare with care: the assays were run in different laboratories. ± marks the error that the study gave.

| Compound | test | test system | setting | how to read | quantity | value |
| --- | --- | --- | --- | --- | --- | --- |
| CCCC[C@@H](C(=O)N[C@@H](CC(=O)O)C(=O)N[C@@H](Cc1ccccc1)C(N)=O)N(C)C(=O)[C@@H](Cc1c[nH]c2ccccc12)NC(=O)CNC(=O)[C@@H](Cc1ccccc1)NC(=O)[C@@H](N)Cc1ccc(O)cc1 | – | male Sprague Dawley rats | RVM injection, 60 ng, added: CCK-8 sulfate 30 ng RVM -10 min before | – | paw withdrawal latency | 21.8 s |
| COc1ccc([N+](=O)[O-])cc1NC(=O)CCC(=O)[O][Zn][O]C(=O)CCC(=O)Nc1cc([N+](=O)[O-])ccc1OC.c1ccncc1 | DPPH scavenging, absorbance | – | 31.25 µg/mL | – | inhibition | 63.8% |
| CC(=O)c1cc2ccccc2oc1=Nc1nccs1 | – | New Zealand White rabbit, normotensive | dose not given | baseline: control | mean arterial blood pressure | increased |
| N=C(N)NCCC[C@H](NC(=O)[C@@H]1CCCN1C(=O)[C@@H]1CSSC[C@H](N)C(=O)N[C@@H](Cc2ccc(O)cc2)C(=O)N[C@@H](Cc2ccccc2)C(=O)N[C@@H](CCC(N)=O)C(=O)N[C@@H](CC(N)=O)C(=O)N1)C(=O)NCC(N)=O | – | male Sprague-Dawley rat, conscious | intra-arterial, 5 ng/kg | baseline: pre-injection baseline | peak heart rate decrease | 16 beats/min |
| CC[C@H](C)[C@H](NC(=O)CNC(=O)[C@H](CC(=O)O)NC(=O)[C@H](CC(C)C)NC(=O)[C@@H](NC(=O)[C@H](CC(N)=O)NC(=O)[C@H](CCC(N)=O)NC(=O)CNC(=O)[C@H](CC(C)C)NC(=O)[C@H](CCCCN)NC(=O)[C@H](CCC(=O)O)NC(=O)[C@@H](NC(=O)[C@H](CCCCN)NC(=O)[C@H](CCC(=O)O)NC(=O)[C@H](Cc1ccccc1)NC(=O)[C@H](CC(C)C)NC(=O)[C@H](CCCCN)NC(=O)[C@H](Cc1c[nH]c2ccccc12)NC(=O)[C@@H](N)CCC(=O)O)[C@@H](C)CC)[C@@H](C)CC)C(=O)N[C@H](C(=O)N[C@@H](CCCCN)C(=O)N[C@@H](CC(C)C)C(=O)NCC(=O)N1CCC[C@H]1C(=O)N[C@@H](CC(C)C)C(=O)N[C@@H](CC(C)C)C(=O)N[C@@H](C)C(=O)N[C@@H](CC(C)C)C(=O)N[C@@H](CC(C)C)C(=O)NCC(=O)N[C@@H](CCC(N)=O)C(=O)N[C@@H](CC(C)C)C(=O)N[C@H](C(=O)N[C@@H](CCC(N)=O)C(=O)N[C@H](C(=O)N[C@@H](C)C(=O)N[C@@H](CC(C)C)C(N)=O)[C@@H](C)CC)[C@@H](C)O)[C@@H](C)CC | carboxyfluorescein release, stopped-flow fluorescence | POPC vesicles 50 µM | up to 1 µM, pH 7.5, peptide/lipid 1:50 | – | time constant | 35 s |
| CC[C@H](C)[C@H](NC(=O)[C@@H](NC(=O)[C@H](CC(=O)O)NC(C)=O)[C@@H](C)O)C(=O)N[C@@H](CCCNC(=N)N)C(=O)N[C@@H](CC(C)C)C(=O)N[C@@H](CC(C)C)C(=O)N[C@@H](Cc1ccccc1)C(=O)N[C@@H](CCC(N)=O)C(=O)N[C@@H](CC(C)C)C(=O)N[C@@H](CCSC)C(=O)N[C@@H](CCCNC(=N)N)C(=O)N1CCC[C@H]1C(=O)N1CCC[C@H]1C(=O)N[C@@H](CC(N)=O)C(=O)N[C@@H](CCSC)C(=O)N[C@H](C(=O)N1CCC[C@H]1C(=O)N[C@@H](C)C(=O)N[C@H](C(=O)N[C@@H](CC(N)=O)C(=O)N[C@@H](C)C(N)=O)C(C)C)[C@@H](C)O | TNF-α and/or IFN-γ production | compound-specific CD4 T cell line, healthy adult human | NG, 6 h, 37 °C | – | cytokine-producing tetramer+ CD4 T cells | ~70% |
| CCOP(=O)(OCC)OCCCCOC(=O)CC1=C(C)C(=Cc2ccc([S+](C)[O-])cc2)c2ccc(F)cc21 (centres unmarked) | measured: phospho-ERK | nude mice, orthotopic A549 tumour, tumour | inhalation, dose not given | baseline: vehicle | decrease in phosphorylation | 72% |
| CC(C)C[C@H](NC(=O)[C@H](CCCCN)NC(=O)[C@H](CCCNC(=N)N)NC(=O)[C@@H](CC(C)C)NC(=O)[C@H](Cc1c[nH]c2ccccc12)NC(=O)[C@H](CC(=O)O)NC(=O)[C@H](CCCCN)NC(=O)[C@@H](CC(C)C)NC(=O)[C@H](CCCNC(=N)N)NC(=O)[C@H](CCC(N)=O)NC(=O)[C@@H](NC(=O)[C@@H](CC(C)C)NC(=O)[C@H](CCCNC(=N)N)NC(=O)[C@H](CCCCN)NC(=O)[C@H](Cc1ccc(C(C)(C)C)cc1)NC(=O)CN)C(C)C)C(=O)N[C@H](C(N)=O)C(C)C | ELISA | C57BL/6 mouse, catheter infection, peri-catheter tissue | dose not given, 3 d | baseline: untreated infected | TNF-alpha level | decreased |
| Cc1cc(Nc2nc(C[C@@]3(C(=O)O)CCN(Cc4cccc(Cl)c4F)[C@H](C)C3)cc(C)c2F)[nH]n1 | – | mice, NCI-H69 xenograft | oral, 2.5 mg/kg once daily | – | tumour growth inhibition | 60% |
| CCN(C(=O)c1cc(F)ccc1Oc1nncnc1N1CCC2(C1)CN([C@H](CCCN(C)CCOC)C(C)C)C2)C(C)C | – | mouse, sample A AML PDX | dose not given, all dose levels | – | median survival | > 147 days |
| CC[C@H](C)[C@H](NC(=O)[C@H](Cc1c[nH]c2ccccc12)NC(=O)[C@H](CCCNC(=N)N)NC(=O)[C@H](CCCCN)NC(=O)[C@H](CC(C)C)NC(=O)[C@H](CC(=O)O)NC(=O)[C@H](Cc1ccccc1)NC(=O)[C@H](C)NC(=O)[C@H](Cc1ccc(O)cc1)NC(=O)[C@H](CC(N)=O)NC(=O)[C@H](Cc1ccc(O)cc1)NC(=O)[C@H](CCCNC(=N)N)NC(=O)[C@H](Cc1ccc(O)cc1)NC(=O)[C@H](Cc1ccc(O)cc1)NC(=O)[C@@H](NC(=O)[C@H](CC(C)C)NC(=O)[C@H](C)NC(=O)[C@H](CC(N)=O)NC(=O)[C@H](Cc1ccc(O)cc1)NC(C)=O)[C@@H](C)CC)C(=O)N[C@@H](Cc1ccc(O)cc1)C(=O)N[C@@H](CC(C)C)C(N)=O | measured: HA-52 tetramer | antigen-experienced tetramer+ CD4 T cells, healthy adults, HLA-DRB1*0101 | dose not given | – | α4β7+ CCR9+ cells | 0% |
| COc1ccc(F)cc1S(=O)(=O)Nc1cnc2c(c1)C(=O)NCCO2 | measured: pyrophosphate | cynomolgus monkey | oral, 0.3 and 1 mg/kg, up to 8 h | baseline: vehicle | AUC of plasma PPi change | increased |
| CC(C)C[C@@H]1NC(=O)[C@H](C(C)C)NC(=O)[C@H](CO)NC(=O)CNC(=O)CNC(=O)[C@H](CCCNC(=N)N)NC(=O)[C@@H]2CCCN2C(=O)[C@@H](NC(=O)CC[C@H](NC(=O)c2ccc(N(C)Cc3cnc4nc(N)nc(N)c4n3)cc2)C(=O)O)C(C)(C)SSC[C@@H](C(=O)O)NC(=O)CNC(=O)[C@H]([C@@H](C)O)NC(=O)[C@H](C(C)C)NC1=O | – | rat adjuvant arthritis | iv, 5 mg/kg once daily, day 14 | baseline: arthritis vehicle, direction not given | inflammation score reduction | 56% |
| COc1ccc2c(c1)/C(=N\Nc1nnc3n1N=C(c1ccc(C)cc1)CS3)C(=O)N2 | angiogenesis | hen egg chorioallantoic membrane | 40 µM | baseline: DMSO vehicle | number of blood vessels | decreased |
| CC[C@H](C)[C@H](NC(=O)[C@H](CCCNC(=N)N)NC(=O)[C@H](CCC(N)=O)NC(=O)[C@H](CC(=O)O)NC(=O)[C@H](CC(C)C)NC(=O)[C@H](CC(C)C)NC(=O)[C@H](CC(N)=O)NC(=O)[C@H](Cc1ccccc1)NC(=O)[C@H](CC(=O)O)NC(=O)[C@@H](NC(=O)[C@@H](NC(=O)[C@H](CC(N)=O)NC(=O)CNC(=O)[C@H](CO)NC(C)=O)C(C)C)[C@@H](C)CC)C(=O)N[C@H](C(=O)N[C@@H](Cc1c[nH]c2ccccc12)C(=O)N[C@@H](CCC(N)=O)C(=O)N[C@@H](CC(N)=O)C(=O)N[C@@H](Cc1c[nH]c2ccccc12)C(=O)N[C@@H](Cc1ccc(O)cc1)C(=O)N[C@@H](C)C(N)=O)[C@@H](C)CC | measured: HA-51 tetramer | antigen-experienced tetramer+ CD4 T cells, healthy adults, HLA-DRB1*0101 | dose not given | – | α4β7+ CCR9− cells | 34.6% |
| CCN(Cc1ccccc1)C(=O)CCc1nc(CN2CCN(C(=O)Cc3ccc(OC)c(OC)c3)CC2)no1 | elevated plus maze | mouse, CCI neuropathic pain | 20 mg/kg | – | time in open arms | 10.6 ± 1.4 s |
| Cc1ccc(/C=C/C(=O)O)cc1-c1cc2c(cc1C)C(C)(C)CCC2(C)C | RNA sequencing, measured: Mpeg1 | rat, brain | dose not given, 24 h | baseline: vehicle | log2 fold change | -0.94 |
| CC[C@H](C)[C@H](NC(=O)CNC(=O)[C@H](C)NC(=O)[C@@H]1CCCN1C(=O)CNC(=O)[C@H](C)NC(=O)[C@H](CCC(=O)O)NC(=O)[C@H](C)NC(=O)[C@H](CC(=O)O)NC(=O)[C@H](C)NC(=O)[C@H](CCC(=O)O)NC(=O)[C@H](C)NC(=O)[C@H](CCC(=O)O)NC(=O)[C@@H]1CCCN1C(=O)[C@H](CCC(=O)O)NC(=O)CNC(C)=O)C(=O)NCC(=O)N[C@@H](C)C(=O)N[C@H](C(=O)N[C@@H](CC(C)C)C(=O)N[C@@H](CCCCN)C(=O)N[C@H](C(=O)N[C@@H](CC(C)C)C(=O)N[C@H](C(=O)N[C@H](C(=O)NCC(=O)N[C@@H](CC(C)C)C(=O)N1CCC[C@H]1C(=O)N[C@@H](C)C(=O)N[C@@H](CC(C)C)C(=O)N[C@H](C(=O)N[C@@H](CO)C(=O)N[C@@H](Cc1c[nH]c2ccccc12)C(=O)N[C@H](C(=O)N[C@@H](CCCCN)C(=O)N[C@@H](CCCNC(=N)N)C(=O)N[C@@H](CCCCN)C(=O)N[C@@H](CCCNC(=N)N)C(=O)N[C@@H](CCC(N)=O)C(=O)N[C@@H](CCC(N)=O)C(N)=O)[C@@H](C)CC)[C@@H](C)CC)[C@@H](C)O)[C@@H](C)O)C(C)C)C(C)C | – | MCF7 xenograft, nude mouse | intratumoral, 250 nmol, 96 h | baseline: tumour area | necrotic area | ~60% |
| CC1(CCCOC2C(O)OC(CO)C(O)C2O)C(=O)[O][Pt][O]C1=O.NC1CCCCC1N (mixture of isomers) | – | BALB/c mice, GLUT1-expressing breast cancer syngeneic | intravenous, 5 mg/kg, every other day, four doses, 30 days | baseline: vehicle | tumour volume reduction | 10 fold |
| O=c1c(O)c(-c2cc(O)ccc2O)oc2cc(O)cc(O)c12 | DPPH radical scavenging | – | 500 µg/mL | – | inhibition | 78.5 ± 1.17% |
| CCOP(=O)(OCC)OCCCCOC(=O)CC1=C(C)/C(=C/c2ccc([S+](C)[O-])cc2)c2ccc(F)cc21 (centres unmarked) | hindpaw inflammation, histology | rat, Freund's adjuvant arthritis | oral, 50 mg/kg once daily, prevention protocol | – | inhibition | 38% |
| O=C(O)CCCC(=O)O | DPPH radical scavenging | – | 62.5 µg/mL | – | inhibition | 48.8 ± 3.33% |
| N=C(N)NCCC[C@@H]1NC(=O)[C@H](CCCCN)NC(=O)[C@@H](Cc2ccccc2)NC(=O)[C@H](CC(=O)O)NC(=O)CNC1=O | – | B16-F10, C57BL/6 mouse | intravenous (co-injected with cells), 2.4 µmol, 14 d | baseline: cells only | lung metastasis reduction | ~30% |
